Published values collected from several papers.
Each numbered part is a random draw from the data of one study; scales do not carry over between parts.

Series 1
Target: Sal-like protein 4, full length isoform B (SALL4, Homo sapiens, UniProt Q9UJQ4-2, residues 1-616)
Method: universal PBM
Molecule type: double-stranded DNA, one strand shown
Medium: in vitro
Tested at: not given
Notes: 8-mer, flanks averaged, mean of replicates
Reading: higher = stronger binding
Quantity: E-score
Target sequence (chain): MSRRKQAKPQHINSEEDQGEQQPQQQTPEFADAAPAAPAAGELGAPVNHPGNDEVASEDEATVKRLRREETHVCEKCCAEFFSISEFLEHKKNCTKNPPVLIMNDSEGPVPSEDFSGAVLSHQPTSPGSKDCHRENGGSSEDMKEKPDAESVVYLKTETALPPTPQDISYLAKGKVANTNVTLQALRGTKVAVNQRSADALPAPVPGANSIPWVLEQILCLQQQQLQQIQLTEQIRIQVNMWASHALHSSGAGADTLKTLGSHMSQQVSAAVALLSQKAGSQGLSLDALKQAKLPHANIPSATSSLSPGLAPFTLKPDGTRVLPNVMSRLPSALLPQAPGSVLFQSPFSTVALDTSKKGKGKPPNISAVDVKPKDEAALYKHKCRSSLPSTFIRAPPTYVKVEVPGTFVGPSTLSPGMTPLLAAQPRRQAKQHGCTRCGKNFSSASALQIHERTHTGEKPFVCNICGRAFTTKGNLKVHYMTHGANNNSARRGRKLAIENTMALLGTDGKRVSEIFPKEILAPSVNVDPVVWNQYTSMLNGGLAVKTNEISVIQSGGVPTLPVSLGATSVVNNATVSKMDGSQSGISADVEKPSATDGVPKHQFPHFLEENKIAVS
ACCGGGTG: -0.291
ACCTCACT: -0.00039
CCGGCTCG: -0.229
AGGGTCAT: 0.0171
ACCCCTGA: -0.109
ACGTGGTA: -0.0349
CAGGTTAC: -0.0637
CGTTGGCA: -0.0592
CGCCGAAG: -0.305
AATTTAGG: 0.216
CACTCAGG: -0.175
CCTAAGAC: -0.194
AGGAGCTG: -0.208
GTAACAAC: 0.0965
GAAAGAGC: -0.115
AGCCGGCA: -0.277
AATATTGT: 0.418

Series 2
Target: Fragile X messenger ribonucleoprotein 1, C-terminal low-complexity region (Fmr1, Mus musculus, UniProt P35922)
Method: RNA Bind-n-Seq
Molecule type: RNA
Medium: in vitro
Tested at: 200 nM
Notes: whole 134-nt RNA, ends assumed
With: 150 mM KCl
Baseline: input library
Reading: higher = stronger binding
Quantity: log2 enrichment
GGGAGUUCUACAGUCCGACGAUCUGCGGGACAAAGAAGUGGCCAAUCGAUACUUUACCACUGUCUGUGUGAGAUUACUGCUUGAGAGCAAAGAAAAGAAGAUCAGGGAAUUCAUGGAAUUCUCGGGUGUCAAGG: 0.385
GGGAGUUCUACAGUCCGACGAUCAGUCCUGUGCUACACAUCGUAUGUACCGAAUCGGGGAGGGGAAAGGGGUUUUUGGGGAAAGUAUUAUGUUACGCCGUUCGGAUCUGCACUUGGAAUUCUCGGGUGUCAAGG: 0.669
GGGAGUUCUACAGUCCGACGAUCUCCUGUGCUACACAUCGUAUGUACCGAAUCGGGGAAAAAGGGGAAAAAAAGGGGUGGGGAAAGUAUUAUGUUACGCCGUUCGGAUCUGCAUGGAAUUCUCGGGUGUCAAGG: 0.656
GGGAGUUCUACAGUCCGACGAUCUGGCCUGCACAUUCAGCUGCAUGAUGAAGUUCACUGUCAAGGACUGUGAUCCCACCACUGGGGAGACUGAUGACGAAGGCUAUGAGGAUGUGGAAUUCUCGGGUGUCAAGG: -0.0905
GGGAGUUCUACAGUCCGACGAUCCACAGACAACACGCACCCACACAGACACAGAGGGAAGGGGUUGGGGUGGGGACAGGGUGCACAGCAGGGCGGGGUAGGACCCCAGCCCCUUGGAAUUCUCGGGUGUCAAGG: 1.24
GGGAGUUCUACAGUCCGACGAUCUGGCUUCCUUCUUUCUAUUCCCCGCCUGCCUUCCAUGGUAGAGGCCAGUGACUUUGAGAUUAAUGGACUGGACUUCAUGGUAAGACCCUCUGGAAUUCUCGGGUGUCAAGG: 0.26
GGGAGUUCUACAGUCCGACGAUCACCAUGCAGGUGGGCAUCUUUAAAAAGUGGGGCAAGGGGGGGAUAGGGAGGGGGGUAACACUUUGGGAACAGGUGGUCCCAGGUCGUUUCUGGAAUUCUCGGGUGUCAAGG: 1.41
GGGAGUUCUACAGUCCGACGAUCAAGUCCUGUGCUACACAUCGUAUGUACCGAAUCAAACCCAAACCCCCAAACCCAAAAAAGUAUUAUGUUACGCCGUUCGGAUCUGCACUUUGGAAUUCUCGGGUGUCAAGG: -0.292
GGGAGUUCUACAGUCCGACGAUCAAUGUGUCCUCCCUGUCCAAAUUGGGAAUGACUUAAUGUCAAUUUGUUUGUUGGUUGUUUUAAUAAUACUUCCUUAUGUAGCCAUUAAGAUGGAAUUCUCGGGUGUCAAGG: -0.194
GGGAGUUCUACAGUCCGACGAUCAGUCCUGUGCUACACAUCGUAUGUACCGAAUCGGGGUGGGGUUUUUGGGGAAAGGGGAAAGUAUUAUGUUACGCCGUUCGGAUCUGCACUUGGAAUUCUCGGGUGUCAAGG: 0.769

Series 3
Target: RING finger protein unkempt homolog, zinc fingers 1-6, GST-SBP tag (UNK, Homo sapiens, UniProt Q9C0B0, residues 30-357)
Method: RNA Bind-n-Seq
Molecule type: RNA
Medium: in vitro
Tested at: not given
Notes: RNA with constant flanks, ends assumed
Baseline: input RNA pool
Reading: higher = stronger binding
Quantity: bound/input enrichment
Construct (chain): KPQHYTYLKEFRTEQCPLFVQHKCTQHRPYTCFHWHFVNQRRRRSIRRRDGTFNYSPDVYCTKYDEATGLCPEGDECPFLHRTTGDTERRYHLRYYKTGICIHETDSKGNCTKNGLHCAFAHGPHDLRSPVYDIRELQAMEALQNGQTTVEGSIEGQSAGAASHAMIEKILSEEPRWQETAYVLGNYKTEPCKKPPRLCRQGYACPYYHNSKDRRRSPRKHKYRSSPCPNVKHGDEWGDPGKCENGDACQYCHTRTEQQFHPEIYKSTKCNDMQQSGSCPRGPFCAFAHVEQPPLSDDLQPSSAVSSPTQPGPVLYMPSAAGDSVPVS
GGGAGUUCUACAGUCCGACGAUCUUCAUGGAAAUGAGUGUUGAGCAGGAAAUUCUGGUGACUGGUAUCAAGGUUGUCGAUCUGCCCGCUCCCUAUGCCAAGGGUGGCAAAAUUGGGCUUUUUGGUGGUGCUGGAGUUGGCAAGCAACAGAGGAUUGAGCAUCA: 0.386 ratio
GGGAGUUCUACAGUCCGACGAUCAAACCGCUUUAUCAUCCUUGUGUAUGUACUGGCAGUAUUAAGUUUAUCCAUCAAGAAUGCUCCGUUCAAUGGCUGAAACACAGUCGAAAAGAAUACUGUGAAUUAUGCAAGCACAGAUUUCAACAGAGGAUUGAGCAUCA: 0.241 ratio
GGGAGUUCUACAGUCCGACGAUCAGCAUGAAUAUGAAGAGCAGGUUUGAUAUAAAAUCAAUGGCAGGGAAUAUCAUUCCUGCUACCGCUACUACUAAUGCAGUGAUCGCCGGCUUGAUAGUGUUGGAAGGAUUAAAGAUUUUACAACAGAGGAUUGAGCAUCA: 0.503 ratio
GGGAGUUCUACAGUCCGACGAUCAAGAUUUAAUAUAUAAAGAUUUAAUAUGAGUUAAACAUGUUUCUUAUUCUGUGAUCUCUAAUCCGAAAGUAAAAUUCUGUUGCCAUAAAUAUAAAAGAAAGUUUUCACUUAUAUUUUAGUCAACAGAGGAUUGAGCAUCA: 0.602 ratio
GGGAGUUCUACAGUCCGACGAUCGACCCAACUCCAACAAUGAGAGAUGUGAACAAAAAAUUUUCAGUAAGGUACUUUUUGAAUUCCGUGCUUGUUGAUGAGGAAGACCGGAGGUACUUCAAACAGCAGGAGAUAAUUUUAUGGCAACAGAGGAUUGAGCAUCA: 0.252 ratio
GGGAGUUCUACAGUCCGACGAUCAAUGCAUCUCUUCAAGACCAUAUUUAUCCGAGCUGUUUUGGGAAUACUCCAGAGUGGAACCGUUCUAAAUUUAUAAGUCUUUGGGGAUCAGAAGUGAUGAAUGAUAAGAACUGGAAUCCUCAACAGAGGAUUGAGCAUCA: 0.307 ratio
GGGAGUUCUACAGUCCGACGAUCAAGCACUUUCAACAGGCAAAAAUGAUAUUGGAAAAUAUUCCUAACCCGGACCAUGAGGUUAACCGAAUUUUAAAGGUUGCCAAACCCAACUUUGUGGUUAUGAAGUUAUUGGCAGGAGGACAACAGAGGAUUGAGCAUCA: 0.388 ratio
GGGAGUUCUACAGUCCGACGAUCCGUGGGAAAACUAGAGCUGAAACAAUGGGACCCAUGGGUUGGAUGAAGUGUCCUCUUGCCCGCACCAAUAAAAGAUUUCUAAUUAACACAAUUAAAAACACAUUGCCCUCUCAUAAAGAGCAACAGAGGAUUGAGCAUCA: 0.78 ratio
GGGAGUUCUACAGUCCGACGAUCUUUCCGAUCUUGUCCCCCUGCCCUUCCCUCGUAGUCUCUGCAUUUCUCCCCCAAGGUGGCAUCCGCAGGCUUGAGGCUCCCAGGGGAUAGGAACGCCUGGCCUGGCGUGCUUAGCACCGCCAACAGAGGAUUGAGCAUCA: 0.202 ratio
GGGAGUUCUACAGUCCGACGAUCGACAACUCUGUCCCUACGACCGGGUCGUUAAGCGCCGUUGCAGCCAUGGCUACUGCUCCCGGAUUUCGCUGCCUUUUCCGAACGCGACCUGCGCCGCUCUGUCGGCACGUCGACCGGCUGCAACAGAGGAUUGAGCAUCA: 0.0871 ratio
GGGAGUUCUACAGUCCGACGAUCGAAAUGGUUCCAGAAAAACGAGCCUCAGCUGGCGAAUGCCUUCGGCAUCCUUGGUUGAAUUCUCCGCAAAUUCUACCAAUAUUGCAUUCUGAGCUAGCAAAUGUUCCCAGUACAUUGGACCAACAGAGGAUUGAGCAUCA: 0.164 ratio

Series 4
Target: RNA binding protein fox-1 homolog 2, RRM domain, GST-SBP tag (RBFOX2, Homo sapiens, UniProt O43251-10, residues 100-194)
Method: RNA Bind-n-Seq
Molecule type: RNA
Medium: in vitro
Tested at: 365 nM
Notes: natural RNA segment, single round, ends assumed
Baseline: no-protein control
Reading: higher = stronger binding
Quantity: RBNS enrichment (R)
Construct (chain): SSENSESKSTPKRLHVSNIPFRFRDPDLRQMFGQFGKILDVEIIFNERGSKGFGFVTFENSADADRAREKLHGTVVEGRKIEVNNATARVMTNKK
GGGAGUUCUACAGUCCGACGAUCUUUGUACUCAGCUAGCUUUGAUUUAAUGUACCACUGCUUUGUCUUUCUGUUACACAUAUGGUUUUGAUUUAUUUACAAUAUAUGCUGUGCCAUUUUGAUUUUUAUUUUGGUGGAAUUCUCGGGUGCCAA: 0.761
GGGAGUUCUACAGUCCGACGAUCCCCAUGUUUAUUAAGAAUCAUUGUGCUUAAUAAUACCAAGACUAAGCACCAUAACCAAGAAAUACUAAUGUAAAGAUUGUUUCUUGUUUCAGGAAUGGUUAAUUCUUCAAUGGAAUUCUCGGGUGCCAA: 0.351
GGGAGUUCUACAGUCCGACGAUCCACAUCUCAUCUCACCCAUCGGCUACCUGCUGUAAUAUAAGACAACAGCUUUUAAACGUGUAUAUAAUCCAUGAUUUUGGUUUGGUUCUGUUUGUUUUCCUUGGUGGUCCUGGAAUUCUCGGGUGCCAA: 0.627
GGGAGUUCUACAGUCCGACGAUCAAGCAGAAGGGAAGGAGUGUGGCGGAGGCUGGGAUGGAUUCCCUAAGCCAAGCCUGCCCAGCUAAUGAGCUGUUUGACGUUGAACUUGAAAGCUUUCCCCUCCCUCUAAGUGGAAUUCUCGGGUGCCAA: 0.428
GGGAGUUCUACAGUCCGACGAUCAAAAUCUGGGGGCUGCCACUGUACUUAACAUCUUCAUUUGAAGCCUUUCAGAUUUCCAUAAAGCCAGCAAUCAGAAAGGAUCUCUCUUCCAUACCACUGUUCUUGCUAAAUGGAAUUCUCGGGUGCCAA: 0.281
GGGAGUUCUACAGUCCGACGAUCUCACAGAGGCUGACCACCUUACACUGCUGGGUGGUCACAACUGCUCACCAUGUGAACAUAGUACCUCAGUUCUGUCCUUGGCUGCAAUCGUUGUGUGCUCAGUGUUUUCUUGGAAUUCUCGGGUGCCAA: 0.284
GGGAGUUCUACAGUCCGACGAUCAUGGGGUGUCCUGGCCCUUAGUGACACAGCUCCUCUCUGGGGCACCCUAUCUGCUUGUCUCGUCCAGGAAGCGUUAGGGCUGAUGGGUGACUCAGCAAGGCAGUGUCAGAUGGAAUUCUCGGGUGCCAA: 0.337
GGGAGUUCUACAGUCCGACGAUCUUCAGAUUAAUGUUCUACUACUUGUGACUGAGAAAAGUUUAAUGCCGGCAUGGUAAAAGGAAGCUGUCUCCCUUCUGACAUUUCCUAGGAAGCUAGGAAAAGGAAAGUGAUGGAAUUCUCGGGUGCCAA: 0.501
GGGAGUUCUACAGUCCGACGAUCAUUUUGGUACAGUGUUUGUUUCCUAAUAUUUAUUAACCACCUUAUACCAAAUGUCUUGCAAAGAAAUGUUAUUAAAACCUUGAAUUUUUACAAAUGUAAAAAACAAAAAGUGGAAUUCUCGGGUGCCAA: 1.5
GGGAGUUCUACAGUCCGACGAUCAACAAUGUGUUUUCCACCCCACCCAAUGGGAUUGUUGAAGUAUUAACUGUGCUAAGAGAUCUUGACACAGCAGUAAGAUUCCAGUCUCCUUAUUACCAAACUCUCAACUCUGGAAUUCUCGGGUGCCAA: 0.415
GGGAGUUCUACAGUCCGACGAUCUUUUUUUUUAAAAAAAACAAAGCAACAAAUUGACUAGAUAUAGGAUAAUUGAAACAUGUUAAAACAUUUAAUAUUGUAUAGGAUAUUGCUAAUUGUGUAUAUGUUGGUUUUGGAAUUCUCGGGUGCCAA: 0.532
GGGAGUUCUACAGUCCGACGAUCGACUUUGCUCAGCCAUGUCCCCUGGGAUACAGGGGCACACCAGGACCAAGUGGCAGACCUGUGGGCUUCAGCCUCGGGGCCGGGGCAUGCCUGCCACCCCCUGACAAAAAUGGAAUUCUCGGGUGCCAA: 0.377
